Measurements collected from several papers.
A part holds a random share of what one study measured. Changes are numbered by the printed parent chain.
UniProt P61077, sequence (whole entry, looked up): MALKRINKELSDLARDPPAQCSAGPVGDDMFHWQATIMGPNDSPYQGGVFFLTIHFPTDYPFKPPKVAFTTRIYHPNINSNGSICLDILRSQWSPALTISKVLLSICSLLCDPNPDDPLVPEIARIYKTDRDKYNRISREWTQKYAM

Sample 1
Target: Interferon regulatory factor 5, full length, phosphomimetic (IRF5, Homo sapiens, UniProt Q13568-2, residues 1-514, S451D/S453D/S456D/S462D)
Method: protein-binding microarray
Molecule type: double-stranded DNA, one strand shown
Matrix: in vitro
Tested at: 940 nM top
Setting: 60-bp whole probe
Added: salmon DNA 0.4 mg/ml
Reference: random background probes
Direction: higher = stronger binding
All sequences stand within: GCCTAGCAC … GTCTTGATTCGCTTGACGCTGCTG
Oligonucleotide | fitted relative affinity
GTAAACCATCCAAATGTTATGTGCTAG | 0.211 z-score
TCATACTTCACTCTCTGACTGTGCTAG | 1.09 z-score
TCATTTTCCTTATTGCTTACTGTGCTA | 1.74 z-score
GACAAACTGGGGTATCGAGACGTGCTA | 0.92 z-score
CCAGACTTGATTTTGGTCTTGTGCTAG | -0.0387 z-score
CCACATATGCTTTTTAGAAAGTGCTAG | 0.467 z-score
TTAGGACTGCTTCTCCTTCAGTGCTAG | -0.207 z-score
GACGATGTCGGGTATCGAGACGTGCTA | 0.914 z-score
GACGTTCTCAGTATCGAGACGTGCTAG | 2.79 z-score
CTAGGTCTCCTTATCCTTTAGTGCTAG | 0.474 z-score
AACGGTATCCTTATCCTGACGTGCTAG | 0.336 z-score
TTAGGTTTCCTTTCTCTTTAGTGCTAG | 2.72 z-score
GTAGGTATCCTTTTCCTTTAGTGCTAG | 0.526 z-score
CTAGGTCTCGGTTTCGGTTAGTGCTAG | 9.37 z-score

Sample 2
Target: Histone acetyltransferase KAT6A, winged helix 2, GST fusion (KAT6A, Homo sapiens, UniProt Q92794, residues 85-181)
Method: protein binding microarray
Molecule type: double-stranded DNA, one strand shown
Matrix: in vitro
Tested at: not given
Setting: 8-mer, flanks averaged, mean of 2 arrays, mostly near background
Reference: not given
Direction: higher = stronger binding
Target sequence (chain): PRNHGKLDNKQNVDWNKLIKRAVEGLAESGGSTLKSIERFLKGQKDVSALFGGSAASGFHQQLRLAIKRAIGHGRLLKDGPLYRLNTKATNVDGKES
Oligonucleotide | E-score
ACCCCCTG | 0.0289
CGCATGCG | 0.11
CCAGGCAC | 0.0983
ATGAGGTC | 0.0448
ACCCATCG | -0.0138
ACGGTAGG | -0.201
GCCGATCC | 0.0491

Sample 3
Target: ABI1, truncated, D143A, DHFR fusion (Arabidopsis thaliana)
Method: DHFR PCA, deep sequencing
Matrix: yeast
Setting: methotrexate growth selection, single substitutions
Added: (+)-ABA 0 µM
Reference: wild-type fitted maximum
Direction: higher = stronger binding
Starting sequence: PYL1, truncated, DHFR fusion (Arabidopsis thaliana); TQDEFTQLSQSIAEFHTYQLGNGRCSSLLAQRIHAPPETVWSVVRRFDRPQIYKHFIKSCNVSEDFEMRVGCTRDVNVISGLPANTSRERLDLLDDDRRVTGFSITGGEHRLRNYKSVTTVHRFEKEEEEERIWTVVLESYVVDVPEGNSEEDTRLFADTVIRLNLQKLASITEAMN; partner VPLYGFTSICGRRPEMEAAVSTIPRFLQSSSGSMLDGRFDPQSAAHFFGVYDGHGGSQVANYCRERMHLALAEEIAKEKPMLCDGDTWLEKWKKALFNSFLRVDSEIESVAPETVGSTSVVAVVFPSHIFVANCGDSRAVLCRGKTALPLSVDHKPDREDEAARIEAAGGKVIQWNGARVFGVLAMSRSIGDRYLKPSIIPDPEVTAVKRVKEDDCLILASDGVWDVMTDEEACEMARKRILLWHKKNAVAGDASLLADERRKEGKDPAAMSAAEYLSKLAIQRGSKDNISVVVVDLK
Variant | relative binding score [%]
I79N | 9.33
D3A | 24.8
I52S | 8.77
N77D | 36.9
E147I | 5.18

Single results of other studies
Molecule | target | assay | test system | setting | how to read | endpoint | value
PPARRRLRLSVDE | human cyclin B1 | peptide binding, yeast competitive growth sequencing | peptide, Saccharomyces cerevisiae, cyclin B1-Cln2 fusion | concentration not given, RxL motif peptides | direction not given | binding enrichment score | 0.182
FDPPLESKYECPICLMALREAVQTPCGHRFCKACIIKSIRDAGHKCPVDNEILLENQLFP (TRAF6 RING domain (UniProt Q9Y4K3)) | UBE2D3 UBC core domain (UniProt P61077) | yeast two-hybrid | yeast | mostly zero background | reference: not given, higher = stronger interaction | lacZ reporter activity | 0

For quick reference, copied from above (sample 2):
Oligonucleotide | E-score
CCAGGCAC | 0.0983
ATGAGGTC | 0.0448
ACCCATCG | -0.0138
ACGGTAGG | -0.201
